Measurements from different studies.
Each line is one published result; not all experiments were run side by side. Several values in a cell are separate wells, animals, samples, runs or records.
Observed: cell growth or viability

`Nc1ccn([C@@H]2O[C@H](CO)[C@@H](O)C2(F)F)c(=O)n1` has a viability of 68.1% (MDA-MB-231; MTT; 1.25 µg/mL, 48 h).
`COc1cccc(NC(=O)Nc2ccc(Oc3nc4ccccc4n4cnnc34)cc2)c1` gave a viability of 100% (WI-38; MTT; 3.125 µM, 24 h).
`CCOC(=O)C(C(C)=O)=C1Sc2nc3ccc(S(=O)(=O)N4CCCC4)cc3nc2S1` gave a viability of 94.5% (WI-38; MTT; 6.25 µM, 24 h).
`Cn1cnc2c1c(=O)n(CC(=O)Nc1c(Cl)cccc1Cl)c(=O)n2C` gave a viability of 32.7% (NCI-H1975; MTT; 100 µg).
`CNC(=O)c1cc(Oc2ccc(NC(=O)Nc3ccc(Cl)c(C(F)(F)F)c3)cc2)ccn1` has a viability of 40.3% (WI-38; MTT; 12.5 µM, 24 h).
`N#CC(C(=O)Nc1cccc(C(F)(F)F)c1)=C1Sc2nc3ccc(S(=O)(=O)N4CCCC4)cc3nc2S1` gave a viability of 100% (WI-38; MTT; 1.56 µM, 24 h).
With `COc1cc(N2CCC(N3CCN(C)CC3)CC2)ccc1Nc1ncc(Cl)c(Nc2ccccc2P(C)(C)=O)n1` the viability was 54% and 53% and 56% (Ba/F3 EML4-ALK; CCK-8; 1 µM, 3 h).
`N[C@H]1C(O)O[C@H](CO)[C@@H](O)[C@@H]1O` (stereo partly shown) gave a viability of 100% (Caco-2; CCK-8; 1 mM).
With `O=C1CCCCC1=C1Sc2nc3ccc(S(=O)(=O)N4CCCC4)cc3nc2S1` the viability was 99.7% (WI-38; MTT; 6.25 µM, 24 h).
The viability of `COc1cccc2c1C(=O)c1c(O)c3c(c(O)c1C2=O)C[C@@](O)(C(=O)CO)C[C@@H]3O[C@H]1C[C@H](N)[C@H](O)[C@H](C)O1` is reported as 43.6% (K562; MTT; 50 µg/mL).
`CC(=O)c1nn(-c2ccc(C)cc2)/c(=N/N=C(\C)c2ccc(NC(=O)c3ccccc3)cc2)s1` has a viability of 4.48% (WI-38; MTS; 10 µM, 24 h).
`COc1cccc2c1C(=O)c1c(O)c3c(c(O)c1C2=O)C[C@@](O)(C(=O)CO)C[C@@H]3O[C@H]1C[C@H](N)[C@H](O)[C@H](C)O1` gave a viability of 87.4% (WI-38; MTT; 1.56 µM, 24 h).
For `O=c1[nH]cc(F)c(=O)[nH]1`, the viability was 49.7% (PC-9; CCK-8; 20 µM).
